Published values of several laboratories.
Each line is one published result; not all experiments were run side by side. ± gives the spread as reported.
B1: UGT1A9 (Homo sapiens, UniProt O60656); chain GKLLVVPMDGSHWFTMRSVVEKLILRGHEVVVVMPEVSWQLGRSLNCTVKTYSTSYTLEDLDREFKAFAHAQWKAQVRSIYSLLMGSYNDIFDLFFSNCRSLFKDKKLVEYLKESSFDAVFLDPFDNCGLIVAKYFSLPSVVFARGILCHYLEEGAQCPAPLSYVPRILLGFSDAMTFKERVRNHIMHLEEHLLCHRFFKNALEIASEILQTPVTEYDLYSHTSIWLLRTDFVLDYPKPVMPNMIFIGGINCHQGKPLPMEFEAYINASGEHGIVVFSLGSMVSEIPEKKAMAIADALGKIPQTVLWRYTGTRPSNLANNTILVKWLPQNDLLGHPMTRAFITHAGSHGVYESICNGVPMVMMPLFGDQMDNAKRMETKGAGVTLNVLEMTSEDLENALKAVINDKSYKENIMRLSSLHKDRPVEPLDLAVFWVEFVMRHKGAPHLRPAAHDLTWYQYHSLDVIGFLLAVVLTVAFITFKCCAYGYRKCLGKKGRVKKAHKSKTH

| Substance | tested on | test | system | conditions | how to read | endpoint | result |
| --- | --- | --- | --- | --- | --- | --- | --- |
| insulin |  | measured: plasma glucose | rat, streptozotocin-induced diabetes | oral, 20 IU/kg | baseline: subcutaneous dose 1 IU/kg | relative bioavailability | < 0.5% |
| Insulin human |  | ELISA | rat, ventral cortex | intranasal, 20 µg per nostril, 15 min |  | concentration | 0 pg/mg tissue |
| CSCC[C@H](NC(=O)[C@H](CC(C)C)NC(=O)[C@H](Cc1c[nH]cn1)NC(=O)CNC(=O)[C@@H](NC(=O)[C@H](C)NC(=O)[C@H](Cc1c[nH]c2ccccc12)NC(=O)[C@H](CCC(N)=O)NC(=O)CCCCCNC(=O)[C@H](CCC(=O)NCCCC[C@@H]1NC(=O)[C@@H](Cc2ccc(O)cc2)NC(=O)[C@H](CC(=O)O)NC(=O)CNC(=O)[C@H](CCCNC(=N)N)NC1=O)NC(=O)CN1CCN(CC(=O)O)CCN(CC(=O)O)CC1)C(C)C)C(N)=O [copper-64 labelled] |  |  | ICR SCID mouse, female, stomach | intravenous, 750 kBq, 1 h |  | tissue uptake | 1.43 ± 1.16 %ID/g |
| COc1cccc2c1C(=O)c1c(O)c3c(c(O)c1C2=O)C[C@@](O)(C(=O)CO)C[C@@H]3O[C@H]1C[C@H](NC(=O)[C@@H]2CCCN2C(=O)CN)[C@H](O)[C@H](C)O1 |  |  | mouse, E0771 tumour-bearing, heart | intravenous, 92 µmol/kg PhAc-ALGP-Dox |  | terminal half-life | 7 h |
| rnpA F107W (Bacillus subtilis) |  | NMR, measured: His3 |  | 25 °C, 1.00 M NaCl, folded, sulfate-bound, together with: sulfate 20 mM |  | pKa | 6.23 |
| insulin lispro |  |  | human, plasma | subcutaneous pump |  | time to 95% clearance | 6.3 h |
| insulin degludec |  |  | human, moderate hepatic impairment, serum | subcutaneous, 0.4 U/kg single dose |  | AUC(0-120 h) | 0.0889 µM·h |
| CC(C)[C@H](NC(=O)[C@@H]1CCCN1C(=O)[C@H](CCCNC(=N)N)NC(=O)[C@H](CS)NC(=O)[C@H](Cc1c[nH]c2ccccc12)NC(=O)[C@H](CCCNC(=N)N)NC(=O)[C@@H](Cc1ccccc1)NC(=O)[C@H](Cc1c[nH]cn1)NC(=O)[C@H](CCC(=O)O)NC(=O)[C@H](CS)NC(=O)[C@H](CS)NC(=O)[C@H](CCCNC(=N)N)NC(=O)[C@@H]1CC(=O)N[C@@H](CCCNC(=N)N)C(=O)N[C@@H](C)C(=O)N[C@@H](CC(=O)O)C(=O)N[C@H](Cc2ccc(O)cc2)C(=O)N1)C(N)=O [technetium-99m labelled] |  |  | C57 mouse, intestine | intravenous, 0.037 MBq, 0.5 h |  | tissue uptake | 2.53 ± 0.18 %ID |
| CC(C)[C@H](NC(=O)[C@@H]1CCCN1C(=O)[C@H](CCCNC(=N)N)NC(=O)[C@H](CS)NC(=O)[C@H](Cc1c[nH]c2ccccc12)NC(=O)[C@H](CCCNC(=N)N)NC(=O)[C@@H](Cc1ccccc1)NC(=O)[C@H](Cc1c[nH]cn1)NC(=O)[C@H](CCC(=O)O)NC(=O)[C@H](CS)NC(=O)[C@H](CS)NC(=O)[C@H](CCCCN)NC(=O)[C@@H]1CC(=O)N[C@@H](CCCNC(=N)N)C(=O)N[C@@H](C)C(=O)N[C@@H](CC(=O)O)C(=O)N[C@H](Cc2ccc(O)cc2)C(=O)N1)C(N)=O [technetium-99m labelled] |  |  | C57 mice, heart | intravenous, 0.037 MBq, 24 h |  | tissue uptake | 0.13 ± 0.04 %ID/g |
| B1 (UGT1A9) | Oc1ccc2c(c1)OC[C@H]1c3cc4c(cc3O[C@@H]21)OCO4 | steady-state kinetics |  | pH 7.4, 37 °C |  | Vmax/Km | 75 µL/min/mg |

Repeated from above:
| Substance | tested on | test | system | conditions | how to read | endpoint | result |
| --- | --- | --- | --- | --- | --- | --- | --- |
| CSCC[C@H](NC(=O)[C@H](CC(C)C)NC(=O)[C@H](Cc1c[nH]cn1)NC(=O)CNC(=O)[C@@H](NC(=O)[C@H](C)NC(=O)[C@H](Cc1c[nH]c2ccccc12)NC(=O)[C@H](CCC(N)=O)NC(=O)CCCCCNC(=O)[C@H](CCC(=O)NCCCC[C@@H]1NC(=O)[C@@H](Cc2ccc(O)cc2)NC(=O)[C@H](CC(=O)O)NC(=O)CNC(=O)[C@H](CCCNC(=N)N)NC1=O)NC(=O)CN1CCN(CC(=O)O)CCN(CC(=O)O)CC1)C(C)C)C(N)=O [copper-64 labelled] |  |  | ICR SCID mouse, female, stomach | intravenous, 750 kBq, 1 h |  | tissue uptake | 1.43 ± 1.16 %ID/g |
